Measured values of several laboratories.
Parts stem from different laboratories: compare values within a part only.

Block 1
Target: RNA binding protein fox-1 homolog 2, RRM domain, GST-SBP tag (RBFOX2, Homo sapiens, UniProt O43251-10, residues 100-194)
Method: RNA Bind-n-Seq
Form: RNA
Sample: in vitro
Concentration: 365 nM
Notes: natural RNA segment, single round, ends assumed
Reference: no-protein control
Direction: higher = stronger binding
Measurement: RBNS enrichment (R)
Target sequence (chain): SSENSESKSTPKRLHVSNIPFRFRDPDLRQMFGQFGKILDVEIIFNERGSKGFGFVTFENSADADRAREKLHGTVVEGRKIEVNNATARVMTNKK
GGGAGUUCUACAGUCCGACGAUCAGGGGUAUUAUCUGAACAAUAUAAAAACAGAAUGAAGCAAGCUAAUCUGAAUCAUCACUUUAGGGUAUCCAUAGCCUAAGAAAUGUGUCAGAAGAUCUAAAGCCUUCCUUUGGAAUUCUCGGGUGCCAA: 0.386
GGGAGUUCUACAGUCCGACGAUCGAAAGGUGACCUCAGAUGCACCUGUUUUCAGCCUGUGCUUUUGUUCUAGUAAAGACAUUUAAACCAAUGGAGUUGCUCCUUUUUGAAGUUAUUGUCACAGAAUCAGGAGUUGGAAUUCUCGGGUGCCAA: 0.381
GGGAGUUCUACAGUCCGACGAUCACUUGGUGCCAAGGCCAAGAGAGAACAGCCCCUGGUCUGCGUCUGUGUCCCCAAGAGAGAGGCUGAAGGACUUUCUCGACAUGGUCCUGGCACUUCCCAGCCUGCUUUUGUGGAAUUCUCGGGUGCCAA: 1.58
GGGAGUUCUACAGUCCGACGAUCUCUUAACUUCCCAAGCUGCAGAAUAGCAACCUUUUAAGCUUUCACACACUUUCCUCUUAAGAUCCGUCAUCUCCAGGACAUAAGUCCCCAGCUCCCAACUGUGGCCAUGGUGGAAUUCUCGGGUGCCAA: 0.678
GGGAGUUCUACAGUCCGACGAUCGUGUGUAUGAAAUCUGUGUUUCCAAUCUCUCUCUCCCAGAUCGGUGACAGUCACUAGCUUGUCCUGAGAAGAUAUUUAAUUUUGCUAACACUCAGCUCUGCCCUCCCUUGUGGAAUUCUCGGGUGCCAA: 0.569
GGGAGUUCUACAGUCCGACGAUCGCUGGGGCAGGCAACUACCCGUCCUCAAGCCCGCUGUUUCUGUCUCCCUACCAGACAGGCCUCUGGGAAUGGAGAGAGAAGCAGCUGAGUAGAACAUGAACUAGUUAGAGUGGAAUUCUCGGGUGCCAA: 0.304
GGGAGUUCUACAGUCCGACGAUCAGGGGACAAGACCUCCAGGAGGCCCUGUGGAGUCUCUGGUGAGGUGUGCGAUGGCAGAGCAGCAUCCAAGCAGAGAUCAGAUGUCCUCUUCAGUCUGUGGGCGGGCGAUUUGGAAUUCUCGGGUGCCAA: 1.46
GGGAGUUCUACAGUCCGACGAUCUGGAGUAUGGAGUUUACCUUUGGAGAAGUUGUAAUGGAGCAUGCCCUGUCCCACCACUCUCAGAGAGGGUGUACCUGUCAAACUGGAUGGCCUACAUAGGUACUCCCCCCUGGAAUUCUCGGGUGCCAA: 2.67
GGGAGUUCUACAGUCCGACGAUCUAGUCAUGACUGCAAAGAGAGAGAAUAAACUGCCCGCUCAGAAGAUAUGUAAUUUGUAUUGUUGUAUAGUUUUAUUGAUUACACUGAUUUAUUCUACCCUAUUUUAUAAUUGGAAUUCUCGGGUGCCAA: 0.761

Block 2
Target: Histone acetyltransferase KAT6A, both winged helices, GST fusion (KAT6A, Homo sapiens, UniProt Q92794, residues 1-181)
Method: protein binding microarray
Form: double-stranded DNA, one strand shown
Sample: in vitro
Concentration: not given
Notes: 8-mer, flanks averaged, mean of 2 arrays, mostly near background
Reference: not given
Direction: higher = stronger binding
Measurement: E-score
Residues (chain): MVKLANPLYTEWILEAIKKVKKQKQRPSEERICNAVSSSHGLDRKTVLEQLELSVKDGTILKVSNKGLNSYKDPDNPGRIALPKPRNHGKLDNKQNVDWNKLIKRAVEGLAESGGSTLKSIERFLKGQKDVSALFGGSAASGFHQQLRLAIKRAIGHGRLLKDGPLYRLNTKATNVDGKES
ACAACAAA: -0.0404
AGTCTTAA: -0.0246
AGGCATAT: -0.219
GCCAGTTA: -0.102
CAATAAAC: -0.0268
GACAGTAA: -0.129
ATCAAGAG: -0.127
AACTTCGC: 0.133
CGCTGAGA: 0.0586
ATCTAGAT: -0.155
AGGCTCAT: -0.193
TGCGCACA: 0.248
CAATAACC: -0.00956
CGGGTGGA: 0.144
CAGATGAG: -0.274
AAAAACGC: 0.191
CATCAGAA: -0.066
CACTAGCG: 0.104

Block 3
Target: RING finger protein unkempt homolog, zinc fingers 1-6, GST-SBP tag (UNK, Homo sapiens, UniProt Q9C0B0, residues 30-357)
Method: RNA Bind-n-Seq
Form: RNA
Sample: in vitro
Concentration: not given
Notes: RNA with constant flanks, human and mouse sites, ends assumed
Reference: input RNA pool
Direction: higher = stronger binding
Measurement: bound/input enrichment
Target sequence (chain): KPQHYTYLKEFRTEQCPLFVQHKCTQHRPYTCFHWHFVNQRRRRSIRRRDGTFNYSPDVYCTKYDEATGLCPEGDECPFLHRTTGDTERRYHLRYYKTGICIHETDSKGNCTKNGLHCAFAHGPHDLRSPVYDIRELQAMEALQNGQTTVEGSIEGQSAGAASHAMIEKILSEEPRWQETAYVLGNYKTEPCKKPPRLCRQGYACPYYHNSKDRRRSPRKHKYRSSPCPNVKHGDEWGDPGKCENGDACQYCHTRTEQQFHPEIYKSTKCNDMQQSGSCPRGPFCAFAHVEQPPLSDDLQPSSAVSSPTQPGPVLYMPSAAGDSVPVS
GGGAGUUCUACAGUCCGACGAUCGAGAAGUGGUCAGUUGCUAAGGAAGUGGAUUUCCCAGUAGGGGUUUCUGCACCUCACCUGUAUAGUCGUUCUGCGCAUGUCCCCCACACAGUCCCCACUGUAUUUACCUGUUCUACUUGUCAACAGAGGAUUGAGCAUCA: 0.358 ratio
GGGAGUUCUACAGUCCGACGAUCAUGGACUUGGCAGCCAAUGAAAAGGCCGUUCAUGCAGACUUUUUUAACGAUUUUGAAGAUCUUUUUGAUGAUGAUGACAUCCAGUGAGAUGCCCUCUGGCUGCAGGCGGGGCCAAGCCCUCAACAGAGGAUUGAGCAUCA: 0.337 ratio
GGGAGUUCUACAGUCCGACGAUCAUGUAUGUCUCCAUUCCUGUCUAUCUGUCUGAGUGCCUCAUUUUGUAAUCAUGACAAUCCUAUAGAACCUUAGAUGGAAAUGAGUGACUAAGGCCUAGGGGUGUCUGUUUAGGAGUGAAUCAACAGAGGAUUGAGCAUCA: 0.429 ratio
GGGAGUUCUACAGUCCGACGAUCGGCUACCUGGUCUCCGUGGAUGGCUACAUGAACAUGCAGCUUGCAAAUACAGAAGAGUACAUAGAUGGGGCGCUGUCUGGACAUCUGGGCGAAGUUCUAAUAAGGUGUAAUAAUGUCCUCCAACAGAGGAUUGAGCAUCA: 0.13 ratio
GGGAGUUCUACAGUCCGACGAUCAAACUUCACUCAUCAUUUGAAUACAGUAUUUACAGAGGAUGUUUGAGUUGAGAGCUUUUUUAGGUUUGAGGGGCUUGAUUUUUUUGUAAAUAAAAUUAUGCUUUGUGGCUAUCCAUCAACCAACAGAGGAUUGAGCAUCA: 0.248 ratio
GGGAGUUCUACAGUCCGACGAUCCCCGAGGCCGGCAACACCCUGCGCCGCUGGCGCUGCCACGUGCAAAGGUUCUUCUACCGCAUCUACGCCAGCCUGCGCAUCGAGGAGCUCUUCAGCAUCGUCCGAGACUUCCCAGACUCCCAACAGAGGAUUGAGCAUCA: 0.0708 ratio
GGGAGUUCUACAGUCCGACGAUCCGGAACUGCCUAGUGGGCGAGAACCAUGUGGUGAAAGUGGCCGACUUUGGUUUAAGUAGACUGAUGACUGGAGAUACCUACACUGCUCAUGCUGGAGCCAAAUUUCCUAUUAAAUGGACACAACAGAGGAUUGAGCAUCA: 0.119 ratio
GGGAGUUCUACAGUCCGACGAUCCAUUUGAUGUAUGCGGUCAGAGAAGAAGUGGAGGUCCUCAAAGAGCAAAUCAAAGAACUAAUAGAGAAAAAUUCCCAGCUGGAGCAGGAGAACAAUCUGCUGAAGACACUGGCCAGUCCUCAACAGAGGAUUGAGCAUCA: 0.496 ratio
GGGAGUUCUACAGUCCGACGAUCAACCAAGAACAUGAAACAGAGGACUGUGCUGAAUCUCUAAAUCAUGCUGAUAGUGAUGUACCACCUUCUAAUACCAUGAGUCCCUUUAACACCUCUGAUUACCGCUUUGAGUGUAUAUGUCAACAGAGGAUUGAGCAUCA: 0.118 ratio
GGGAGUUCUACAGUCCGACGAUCGCUUAGUUUUAAAGACAACUUUGAAAUAAACAAUGAAAUAAAAGAUGUCACUAAAAUCUUUGAGGCUCCUGAACACAUUUUGCUGACAUAGUUUUGGGGCUUGAGGAGACCGCAUGUUGUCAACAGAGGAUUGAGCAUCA: 0.727 ratio
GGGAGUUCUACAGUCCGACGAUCCCUGUUUUUGCCUCUCUCUGGCUUCUGGAAAGUGCUCCUUCAUGACAUCCCCUAUCUGCAUAGUUCAAGCACCCCAAAUCUGCCCCUUCCUCCUUAAAGACUGGUAGAUGGGAUCAGCUCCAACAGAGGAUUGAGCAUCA: 0.569 ratio

Block 4
Target: Centromere-binding protein 1, full length, His-tagged (CBF1, Saccharomyces cerevisiae, UniProt P17106, residues 1-351)
UniProt P17106, sequence (whole entry, looked up): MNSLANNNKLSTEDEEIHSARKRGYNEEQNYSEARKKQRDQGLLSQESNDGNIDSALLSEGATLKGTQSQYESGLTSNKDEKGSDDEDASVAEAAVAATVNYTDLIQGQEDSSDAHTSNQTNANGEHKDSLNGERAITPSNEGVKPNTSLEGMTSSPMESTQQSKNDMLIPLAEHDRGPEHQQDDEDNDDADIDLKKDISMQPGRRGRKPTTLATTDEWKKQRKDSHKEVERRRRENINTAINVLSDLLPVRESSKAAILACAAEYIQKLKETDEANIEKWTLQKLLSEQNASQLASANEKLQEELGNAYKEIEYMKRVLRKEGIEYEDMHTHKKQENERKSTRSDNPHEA
Method: competition protein-binding microarray
Form: double-stranded DNA, one strand shown
Sample: in vitro
Concentration: 2 µM
Notes: whole 60-bp probe, lowest competitor level
Added: Pho4 competitor, 0.05 µM
Direction: higher = stronger binding
Measurement: fluorescence intensity
CTGGCGTCATAATTTCACGTGTTTTAATAGCCATCCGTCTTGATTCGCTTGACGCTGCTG: 1320 a.u.
AAATTACTAAGTTGTGCGGTGGGTGACGCCGTATGAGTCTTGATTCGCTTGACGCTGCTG: 64.8 a.u.
GTTAATTAATCAAGCAACGTGCGGAGTTTTATCACAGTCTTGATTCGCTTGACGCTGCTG: 167 a.u.
AGCAGAATTACCCTCCACGTTGATTGTCTGCGAGGCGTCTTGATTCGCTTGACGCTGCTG: 73.7 a.u.
TGGCGCCGCCGCCACCACGCGGCAGCTCTGATTGGAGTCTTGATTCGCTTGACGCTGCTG: 49.1 a.u.
GTCTTGTCTCATTGGACCGTGGGTGTCCCCACTTCAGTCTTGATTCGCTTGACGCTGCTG: 67.2 a.u.
GCAATCTTCCTGAATCACCTGGCACTTTAGATGAAAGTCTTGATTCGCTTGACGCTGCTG: 108 a.u.
CATCATATATGTCGGCACGTTTTTCCATTCAGGAAAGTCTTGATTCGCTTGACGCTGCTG: 304 a.u.
CACGTAGAAGCTATCTTGATCAAGACTCTTTCTTTAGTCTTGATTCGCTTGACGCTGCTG: 93.2 a.u.
AAAGTAACCCACTTTAACGTGACGGAACCTGAGCTGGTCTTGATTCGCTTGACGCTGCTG: 144 a.u.
AAATTACTAAGTTGTGTGGTGGGTGACGCCGTATGAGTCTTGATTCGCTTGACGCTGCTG: 66.2 a.u.
CAGTAAACAAACTCGCACCGGTCGCCGTTGTTCTTAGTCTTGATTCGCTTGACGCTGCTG: 63.4 a.u.
AAACTGGCAGCGATATGCATGACAGTGGGGAAAGTAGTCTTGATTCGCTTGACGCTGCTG: 62.2 a.u.
CTGTGGACGAATCGGCACGCTTATTATTTAGGAGTGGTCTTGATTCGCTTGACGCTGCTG: 108 a.u.
TTATTGTCATTTGAAGGCGTGATGGGTATGTCGTTAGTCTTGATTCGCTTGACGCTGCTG: 138 a.u.
TTGTCCTCGATACGGCATGCGTATAAAGAGATATAAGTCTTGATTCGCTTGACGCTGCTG: 85.5 a.u.
TACATAGTAACGTATCACCTGTTTTACTTTCAAGATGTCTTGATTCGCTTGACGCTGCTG: 228 a.u.
CCATTTGGATATAAGCTTGTGACAGTGACAGTAGAGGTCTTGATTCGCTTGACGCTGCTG: 96.3 a.u.
